Results from different studies.
Lines come from different studies, so protocols differ.
Target: Beta-adrenergic receptor kinase 1 (GRK2, Homo sapiens, UniProt P25098)

SMILES | test | test system | conditions | scale | quantity | result
CS(=O)(=O)Nc1cccc(-c2csc3cnc(Nc4ccc(N5CCN(CCCCCOc6cccc7c6C(=O)N(C6CCC(=O)NC6=O)C7=O)CC5)cc4)nc23)c1 (stereo not shown) | probe labelling, inhibitor, KiNativ chemoproteomics | MOLT-4 | 1 µM |  | inhibition | -20.5%
CC(C)=CC1OC(C)(C)C2C=C3C(=O)C(Cl)=CC(O)C3C3C(O)C4OC4C(=O)C132 (stereo not shown) | cell-free assay, competition with immobilised ligand |  | 10 µM |  | remaining binding | 100%
Nc1ncc(-c2cc(-c3cnn(CC(F)(F)F)c3)ncc2F)nc1C(=O)NC1CNCC(F)C1 (stereo not shown) | enzyme activity |  | 1 µM | baseline: DMSO control | remaining activity | 102%
O=C(Cc1ccc(OCc2ccccc2)cc1)NC1(C(=O)O)CCN(C(=O)c2ccc(-c3cccc(Cl)c3)cc2)CC1 | enzyme activity, inhibitor |  | 10 µM |  | activity vs control | 78%
CN1CC[C@@H](COc2cnc(C#N)cc2-c2ccn3nc(NC(=O)C4CC4)cc3c2)C1 | enzyme activity, inhibitor |  | 1 µM |  | inhibition | -14%
NC(=O)[C@@H](O)C[C@H]1CCc2sc3ncnc(O[C@H]4CC[C@H](N5CCOCC5)CC4)c3c21 | enzyme activity, inhibitor |  | 10 µM |  | inhibition | -2%
Cc1nc2c(F)cc(-c3nc(Nc4ccc(CNC(=O)CCCCCCC(=O)NO)cc4)ncc3F)cc2n1C(C)C | enzyme activity, inhibitor |  | 1 µM |  | inhibition | 0%
C=CC(=O)N1Cc2nc(-c3cc(-c4cc(Cl)cnc4Cl)c(F)cc3F)n(-c3ccncn3)c2C1 | cell-free assay, inhibitor |  | 1 µM |  | inhibition | 5%
COc1c(Cl)cccc1Nc1c(-c2ccncc2C#C[C@@]2(C)CCCN2C(=O)/C=C/CN(C)C)[nH]c2c1C(=O)NCC2 | binding, competition with immobilised ligand |  | 3 µM |  | remaining binding | 80%
CN1CCN(Cc2ccc(-c3ccc(CO[C@H]4CCC[C@@H]4NC(=O)c4cc(-c5cnn(C)c5)cnc4N)cc3)cc2)CC1 | enzyme activity, inhibitor |  | 0.1 µM |  | inhibition | 2%
Cc1cnc2nc1Nc1cccc(c1)COC/C=C/COCc1cc(ccc1OCCN1CCOCC1)N2 | binding, competition with immobilised ligand |  | 0.1 µM |  | remaining binding | 83%
Nc1ncc2c(n1)-c1c([nH]c3ccc(C4=CCOCC4)cc13)CCC2 | binding, competition with immobilised ligand |  | 1 µM |  | remaining binding | 88%
C=CC(=O)N1CCCC(n2c(=O)c3ncccc3n(Cc3ccc(Oc4ccccc4)cc3)c2=O)C1 (stereo not shown) | cell-free assay, competition with immobilised ligand |  | 1 µM |  | remaining binding | 16%
NC(=O)C[C@H]1CCc2sc3ncnc(O[C@H]4CC[C@H](N5CCOCC5)CC4)c3c21 | enzyme activity, inhibitor |  | 10 µM |  | inhibition | 0%
CCn1cc(C(=O)O)c(=O)c2c(N)c(F)c(NC3CCCCC3)cc21 | kinase activity |  | 0.1 µM, together with: ATP at Km |  | inhibition | 6%
O=C(Nc1cc(-c2ccnc3[nH]ccc23)c(Cl)cn1)[C@H]1CCC[C@@H](NC(=O)C(F)(F)F)C1 | binding, competition with immobilised ligand |  | 0.1 µM |  | remaining binding | 14%
CNC(=O)C1CCN(c2cc(C)c(F)cc2NC(=O)c2ccc(-c3cc(O)ccc3C)c(C)c2)CC1 | binding, competition with immobilised ligand |  | 1 µM |  | remaining binding | 77%
COc1cc(Nc2nccc(-c3cnn4nc(OC)ccc34)n2)cc(C(F)(F)F)c1 | binding, competition with immobilised ligand |  | 1 µM |  | remaining binding | 92%
CNC(=O)C[C@H](Cc1ccc(C#N)cc1)NC(=O)c1cc(-c2ccc(CN[C@H](C)c3ccc(C)cc3)o2)ccc1Cl | enzyme activity, inhibitor |  | 1 µM |  | activity vs control | 108%

For quick reference, copied from above:
SMILES | test | test system | conditions | scale | quantity | result
COc1c(Cl)cccc1Nc1c(-c2ccncc2C#C[C@@]2(C)CCCN2C(=O)/C=C/CN(C)C)[nH]c2c1C(=O)NCC2 | binding, competition with immobilised ligand |  | 3 µM |  | remaining binding | 80%
CN1CCN(Cc2ccc(-c3ccc(CO[C@H]4CCC[C@@H]4NC(=O)c4cc(-c5cnn(C)c5)cnc4N)cc3)cc2)CC1 | enzyme activity, inhibitor |  | 0.1 µM |  | inhibition | 2%
